{"data": "Results of several laboratories", "note": "Each line is one published result; not all experiments were run side by side."}
{"Compound": "C=CCN1CC[C@]23c4c5ccc(O)c4O[C@H]2[C@H](NC(=O)c2ccccc2)CC[C@@]3(O)[C@H]1C5", "assay": "tail flick analgesia, radiant heat tail flick", "system": "CD-1 mice", "setting": "subcutaneous", "ED50": "5 mg/kg"}
{"Compound": "CCCCCc1cc(O)c2c(c1)OC(C)(C)[C@@H]1CCC(C)=C[C@@H]21", "assay": "drug discrimination", "system": "C57BL/6J mice, male", "setting": "intraperitoneal, 30 min pretreatment", "ED50": "2.15 mg/kg"}
{"Compound": "C=CCN1CC[C@]23c4c5ccc(O)c4O[C@H]2[C@H](NC(=O)CCCCC)CC[C@@]3(O)[C@H]1C5", "assay": "tail flick analgesia, radiant heat tail flick", "system": "CD-1 mice", "setting": "subcutaneous", "ED50": "> 10 mg/kg"}
{"Compound": "CCCCCn1nc(C(=O)NC(C(N)=O)C(C)(C)C)c2ccccc21 (stereo not shown)", "assay": "locomotor depression", "system": "male ND4 Swiss-Webster mice", "setting": "intraperitoneal", "ED50": "0.31 mg/kg"}
{"Compound": "COC(=O)[C@H]1[C@@H](c2ccc(Cl)c(C)c2)C[C@@H]2CC[C@H]1N2C", "assay": "nicotine-induced hypothermia, antagonist", "system": "mice", "setting": "added: nicotine 2.5 mg/kg sc", "ED50": "0.14 to 7.4 mg/kg"}
{"Compound": "O=C(O)/C=C/C(=O)O.Oc1cccc2[nH]cc(CCNC3CCCCC3)c12", "assay": "head twitch response", "system": "C57BL/6J mice", "setting": "subcutaneous, 30 min session", "ED50": "> 30 mg/kg"}
{"Compound": "CCCCCn1cc(C(=O)c2ccc(C)c3ccccc23)c2ccccc21", "assay": "locomotor depression", "system": "male ND4 Swiss-Webster mice", "setting": "intraperitoneal", "ED50": "0.61 mg/kg"}
{"Compound": "Cc1cccc([C@]2(O)OCC(C)(C)N[C@H]2C)c1", "assay": "nicotine antinociception, antagonist, tail-flick test", "system": "mice", "setting": "15 min pretreatment, added: nicotine 2.5 mg/kg sc", "ED50": "0.034 to 0.054 mg/kg"}
{"Compound": "CCCCCn1cc(C(=O)c2ccc(OC)cc2)c2ccccc21", "assay": "locomotor depression", "system": "male ND4 Swiss-Webster mice", "setting": "intraperitoneal", "ED50": "5.54 mg/kg"}
{"Compound": "CCCNCCc1c[nH]c2cccc(O)c12.CCCNCCc1c[nH]c2cccc(O)c12.O=C(O)/C=C/C(=O)O", "assay": "head twitch response", "system": "C57BL/6J mice", "setting": "subcutaneous, 30 min session", "ED50": "2.9 to 3.3 mg/kg"}
{"Compound": "C[C@@H]1NC(C)(C)CO[C@@]1(O)c1ccc2ccccc2c1", "assay": "nicotine antinociception, antagonist, tail-flick test", "system": "mice", "setting": "15 min pretreatment, added: nicotine 2.5 mg/kg sc", "ED50": "0.034 to 0.054 mg/kg"}
{"Compound": "COC(=O)[C@H]1[C@@H](c2ccc(Cl)c(C)c2)C[C@@H]2CC[C@H]1N2", "assay": "nicotine-induced hypothermia, antagonist", "system": "mice", "setting": "added: nicotine 2.5 mg/kg sc", "ED50": "0.14 to 7.4 mg/kg"}
{"Compound": "CC(C)(C)NCCc1c[nH]c2cccc(O)c12.CC(C)(C)NCCc1c[nH]c2cccc(O)c12.O=C(O)/C=C/C(=O)O", "assay": "head twitch response", "system": "C57BL/6J mice", "setting": "subcutaneous, 30 min session", "ED50": "> 30 mg/kg"}
{"note": "A few entries again:"}
{"Compound": "CC(C)(C)NCCc1c[nH]c2cccc(O)c12.CC(C)(C)NCCc1c[nH]c2cccc(O)c12.O=C(O)/C=C/C(=O)O", "assay": "head twitch response", "system": "C57BL/6J mice", "setting": "subcutaneous, 30 min session", "ED50": "> 30 mg/kg"}
